Published values gathered from unrelated publications.
Compare with care: the assays were run in different laboratories. Values joined by “and” are separate records of one study, mostly repeats; a detail may differ. Numbers after ± are the reported error.
STK24: Serine/threonine-protein kinase 24 (STK24, Homo sapiens, UniProt Q9Y6E0)
Sequence of UniProt Q9Y6E0 (whole entry, looked up): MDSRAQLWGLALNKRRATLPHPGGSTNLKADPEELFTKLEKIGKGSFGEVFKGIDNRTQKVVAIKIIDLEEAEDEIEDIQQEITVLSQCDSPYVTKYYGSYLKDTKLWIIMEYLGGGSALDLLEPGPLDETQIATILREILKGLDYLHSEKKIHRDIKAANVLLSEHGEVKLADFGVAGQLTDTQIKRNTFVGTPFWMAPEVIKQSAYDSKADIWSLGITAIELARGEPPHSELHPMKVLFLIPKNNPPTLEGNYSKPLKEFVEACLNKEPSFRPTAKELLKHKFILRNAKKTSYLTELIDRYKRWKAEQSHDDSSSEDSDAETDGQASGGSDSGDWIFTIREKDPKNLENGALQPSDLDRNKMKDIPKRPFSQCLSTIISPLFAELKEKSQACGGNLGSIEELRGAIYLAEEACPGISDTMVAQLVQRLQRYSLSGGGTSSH

CC[C@H](C)[C@H](NC(=O)CN)C(=O)N[C@@H](CCCNC(=N)N)C(=O)N[C@@H](CCCCN)C(=O)N[C@@H](Cc1c[nH]c2ccccc12)C(=O)N[C@@H](Cc1ccccc1)C(=O)N[C@@H](CCCCN)C(=O)N[C@@H](CCCCN)C(=O)N[C@@H](C)C(=O)N[C@@H](C)C(=O)N[C@@H](Cc1c[nH]cn1)C(=O)N[C@H](C(=O)NCC(=O)N[C@@H](CCCCN)C(=O)N[C@@H](CCCCN)C(=O)N[C@H](C(=O)NCC(=O)N[C@@H](CCCCN)C(=O)N[C@H](C(=O)N[C@@H](C)C(=O)N[C@@H](CC(C)C)C(=O)N[C@@H](CC(N)=O)C(=O)N[C@@H](C)C(=O)N[C@@H](Cc1ccc(O)cc1)C(=O)N[C@@H](CC(C)C)C(N)=O)C(C)C)C(C)C)C(C)C
chronic toxic concentration (zebrafish embryos 4 hpf, E3 medium; 24 h): 5 µM

CSCC[C@H](NC(=O)CNC(=O)[C@H](CCCCN)NC(=O)[C@H](CC(C)C)NC(=O)[C@@H]1CCCN1C(=O)[C@H](CO)NC(=O)[C@H](Cc1c[nH]cn1)NC(=O)[C@H](Cc1c[nH]c2ccccc12)NC(=O)[C@H](CCCNC(=N)N)NC(=O)[C@H](CC(C)C)NC(=O)[C@H](CCCNC(=N)N)NC(=O)[C@H](Cc1c[nH]c2ccccc12)NC(=O)[C@H](CS)NC(=O)CCCCCNC(=O)CN1CCN(CC(=O)O)CCN(CC(=O)O)CCN(CC(=O)O)CC1)C(=O)O [copper-64 labelled]
tissue uptake (PET; C57BL/6J mice, B16-F10 tumour, kidney; intravenous, 18 h): 4.45 ± 0.58 %ID/g

CCN(CC)CCOc1ccc(-c2nnn(Cc3ccc(OC)cc3)c2N)cc1
micronucleus formation (Sprague-Dawley rat; 100, 200, 400 mg/kg): negative

O=C1NC2(CC2)COc2ncc(F)cc2[C@H]2COCCN2c2ccn3ncc1c3n2
organ-to-brain weight ratio (Sprague-Dawley rat, male, kidneys; oral, 10 mg/kg/day, 4 weeks dosing, end of recovery): 164 ± 17.6%

CCCCC(CC)COC(=O)CC(C(=O)OCC(CC)CCCC)S(=O)(=O)O.CCCSc1ccc2[nH]c(NC(=O)OC)nc2c1 (stereo not drawn)
solubility (visual inspection; Miglyol 812): < 5000 µg/mL

NC1CCN(C(=O)Oc2ccc(C3CCCC4(C3)OOC3(O4)C4CC5CC(C4)CC3C5)cc2)CC1 (racemic)
AUC(0-inf) (male ICR mice, plasma; intravenous, 10 mg/kg): 1150 ng·h/mL

Cc1nc2cccc(OCC(C)(C)C(=O)NC(C)C)c2c(N)c1C(=O)[O-].[Na+]
revertant colonies per plate (Salmonella typhimurium; TA98; 0.13 mg per plate, without S9, preincubation): 25 ± 6

Cn1nc(NS(C)(=O)=O)c2c(Cl)ccc(-n3c([C@H](Cc4cc(F)cc(F)c4)NC(=O)Cn4nc(C(F)F)c5c4C(F)(F)[C@@H]4C[C@H]54)nc4nc(OCCC(F)(F)F)ccc4c3=O)c21
AUC(0-inf) (human, plasma; oral, 200 mg single dose, powder in bottle, geometric mean): 11600 ng·h/mL

CCCCCCCCCCCCCCCC(=O)N[C@@H](CCC(=O)NCCOCCOCCC(=O)NCCOCCOCCC(=O)NCCCC[C@H](NC(=O)[C@H](CC(=O)O)NC(=O)[C@H](CC(C)C)NC(=O)[C@H](Cc1ccc(O)cc1)NC(=O)[C@H](CCCCN)NC(=O)[C@H](CO)NC(=O)[C@H](Cc1ccc(O)cc1)NC(=O)[C@H](CC(=O)O)NC(=O)[C@H](CO)NC(=O)[C@@H](NC(=O)[C@H](Cc1ccccc1)NC(=O)[C@@H](NC(=O)CNC(=O)[C@H](CCC(N)=O)NC(=O)[C@@H](CO)NC(=O)[C@@H](N)Cc1c[nH]cn1)[C@@H](C)O)[C@@H](C)O)C(=O)N[C@@H](CCCNC(=N)N)C(=O)N[C@@H](CCCNC(=N)N)C(=O)N[C@@H](C)C(=O)N[C@@H](CCC(N)=O)C(=O)N[C@@H](CC(=O)O)C(=O)N[C@@H](Cc1ccccc1)C(=O)N[C@H](C(=O)N[C@@H](CCC(N)=O)C(=O)N[C@@H](Cc1c[nH]c2ccccc12)C(=O)N[C@@H](CC(C)C)C(=O)N[C@@H](CC(C)C)C(=O)N[C@@H](CC(N)=O)C(=O)N[C@H](C(=O)NCC(=O)NCC(=O)N1CCC[C@H]1C(=O)N[C@@H](CO)C(=O)N[C@@H](CO)C(=O)NCC(=O)N[C@@H](C)C(=O)N1CCC[C@H]1C(=O)N1CCC[C@H]1C(=O)N1CCC[C@H]1C(=O)N[C@@H](CO)C(N)=O)[C@@H](C)O)C(C)C)C(=O)O
total cholesterol (Sprague-Dawley rat, female; subcutaneous, 100 µg/kg once daily, 14 days): 0.72 ± 0.13 mmol/L

CS(C)(=O)=Nc1ccc(-c2ccc(-c3nc4cc(O[C@@H]5CO[C@H]6[C@@H]5OC[C@H]6O)[nH]c4cc3F)cc2)cc1
inhibition (STK24; enzyme activity, inhibitor; 10 µM): -6%

CCc1nnc(-c2c(OC)cc(-c3cnc4cc(-c5cnn(C)c5)ccn34)cc2OC)o1
unbound fraction (mouse plasma): 0.038

N#[11C]c1ccc(-c2csc(NN=C3CCCC3)n2)cc1
radioactivity uptake (C57BL/6 mice, male, pancreas; intravenous, 3 MBq, 5 min): 3.97 ± 1.1 %ID/g

CC(C)[C@H](NC(=O)[C@@H](NC(=O)[C@H](CCCNC(=N)N)NC(=O)[C@H](CCCNC(=N)N)NC(=O)[C@H](CCCNC(=N)N)NC(=O)[C@H](CCC(N)=O)NC(=O)[C@H](CCCNC(=N)N)NC(=O)[C@H](CCCNC(=N)N)NC(=O)[C@H](CCCCN)NC(=O)[C@H](CCCCN)NC(=O)[C@H](CCCNC(=N)N)NC(=O)CN)[C@@H](C)O)C(=O)N[C@H](C(=O)N[C@@H](CO)C(=O)N1CCC[C@H]1C(=O)O)[C@@H](C)O
organ weight (ICR mice, male, brain; intranasal, 5 mg/kg daily, 4 weeks): 0.616 ± 0.073 g

C/C(=N\OCCCN1CCCCC1)c1ccc(C(F)(F)F)cc1
Cmax (mouse, plasma; oral, 150 mg/kg once daily, day 7): 1640 ± 156 ng/mL

CCCCCCCCCCCCCC(=O)N[C@H](CCN)C(=O)N[C@@H]1C(=O)N[C@@H](CCN)C(=O)N[C@@H](CC(C)C)C(=O)N[C@@H](CCN)C(=O)N[C@H](Cc2ccccc2)C(=O)N[C@@H](CC(C)C)C(=O)N[C@@H](CCN)C(=O)N[C@H](CCN)C(=O)N[C@@H](C(C)C)C(=O)N[C@@H](CC(=O)O)C(=O)O[C@@H]1C
AUC(0-t) (rat, plasma; subcutaneous, 10 mg/kg): 114000 ng·h/mL

CC(C)C[C@@H](NC(=O)[C@@H](CCCNC(=N)N)NC(=O)[C@@H](Cc1c[nH]cn1)NC(=O)[C@@H](Cc1c[nH]c2ccccc12)NC(=O)[C@@H](Cc1c[nH]cn1)NC(=O)[C@@H](Cc1ccccc1)NC(=O)[C@H](NC(=O)[C@@H](Cc1ccc(O)cc1)NC(=O)CNC(=O)CNC(=O)CCOCCOCCOCCNC(=O)CN1CCN(CC(=O)O)CCN(CC(=O)O)CC1)[C@H](C)O)C(=O)N[C@H](CC(N)=O)C(=O)N1CCC[C@@H]1C(=O)O [gallium-68 labelled]
tissue uptake (gamma counting; C57BL/6 mice, male, pancreas; intravenous, 1.85 MBq, 120 min): 0.48 ± 0.19 %ID/g

CSCC[C@H](N)C(=O)N[C@@H](C)C(=O)N[C@@H](Cc1c[nH]c2ccccc12)C(=O)N[C@@H](Cc1c[nH]cn1)C(=O)N[C@@H](CC(=O)O)C(=O)N[C@@H](CC(=O)O)C(=O)N[C@@H](CCC(=O)O)C(=O)N[C@@H](CCC(=O)O)C(=O)N[C@@H](Cc1ccccc1)C(=O)N[C@@H](C)C(=O)N[C@@H](CCCNC(=N)N)C(=O)N[C@@H](CCCNC(=N)N)C(=O)N[C@@H](CCCNC(=N)N)C(=O)N[C@@H](CCCNC(=N)N)C(=O)NCCCCCC(=O)NCCCCC(NC(=O)CCCCCNC(=O)[C@H](CCCNC(=N)N)NC(=O)[C@H](CCCNC(=N)N)NC(=O)[C@H](CCCNC(=N)N)NC(=O)[C@H](CCCNC(=N)N)NC(=O)[C@H](C)NC(=O)[C@H](Cc1ccccc1)NC(=O)[C@H](CCC(=O)O)NC(=O)[C@H](CCC(=O)O)NC(=O)[C@H](CC(=O)O)NC(=O)[C@H](CC(=O)O)NC(=O)[C@H](Cc1c[nH]cn1)NC(=O)[C@H](Cc1c[nH]c2ccccc12)NC(=O)[C@H](C)NC(=O)[C@@H](N)CCSC)C(=O)NCCCCC(NC(=O)C(CCCCNC(=O)CCCCCNC(=O)[C@H](CCCNC(=N)N)NC(=O)[C@H](CCCNC(=N)N)NC(=O)[C@H](CCCNC(=N)N)NC(=O)[C@H](CCCNC(=N)N)NC(=O)[C@H](C)NC(=O)[C@H](Cc1ccccc1)NC(=O)[C@H](CCC(=O)O)NC(=O)[C@H](CCC(=O)O)NC(=O)[C@H](CC(=O)O)NC(=O)[C@H](CC(=O)O)NC(=O)[C@H](Cc1c[nH]cn1)NC(=O)[C@H](Cc1c[nH]c2ccccc12)NC(=O)[C@H](C)NC(=O)[C@@H](N)CCSC)NC(=O)CCCCCNC(=O)[C@H](CCCNC(=N)N)NC(=O)[C@H](CCCNC(=N)N)NC(=O)[C@H](CCCNC(=N)N)NC(=O)[C@H](CCCNC(=N)N)NC(=O)[C@H](C)NC(=O)[C@H](Cc1ccccc1)NC(=O)[C@H](CCC(=O)O)NC(=O)[C@H](CCC(=O)O)NC(=O)[C@H](CC(=O)O)NC(=O)[C@H](CC(=O)O)NC(=O)[C@H](Cc1c[nH]cn1)NC(=O)[C@H](Cc1c[nH]c2ccccc12)NC(=O)[C@H](C)NC(=O)[C@@H](N)CCSC)C(N)=O (stereo partly drawn)
tissue distribution (C57BL/6 mouse female, stomach; dose not given, 3 h; baseline: total): 34.9% and 36.9% and 34.5%

CC[C@H](C)[C@H](NC(=O)[C@H](CCCCN)NC(=O)CNC(=O)[C@H](CC(C)C)NC(=O)[C@H](Cc1ccccc1)NC(=O)[C@H](CCCCN)NC(=O)[C@H](CO)NC(=O)[C@H](Cc1ccccc1)NC(=O)[C@H](Cc1c[nH]c2ccccc12)NC(=O)[C@H](CCC(N)=O)NC(=O)[C@@H](NC(=O)[C@H](Cc1ccccc1)NC(=O)CCCCCNC(=O)CN1CCN(CC(=O)O)CCN(CC(=O)O)CCN(CC(=O)O)CC1)C(C)C)C(=O)N[C@@H](CCC(=O)O)C(=O)N1CCC[C@H]1C(=O)N[C@@H](CC(=O)O)C(=O)N[C@H](C(=O)N[C@@H](CO)C(=O)N[C@@H](CCC(N)=O)C(=O)N[C@H](C(=O)N[C@@H](CCC(N)=O)C(=O)N[C@@H](CC(=O)O)C(=O)N1CCC[C@H]1C(=O)N[C@@H](CC(N)=O)C(=O)N[C@@H](CC(=O)O)C(=O)N[C@@H](CCC(N)=O)C(=O)N[C@@H](Cc1ccc(O)cc1)C(=O)N[C@@H](CCC(=O)O)C(=O)N1CCC[C@H]1C(=O)N[C@@H](Cc1ccccc1)C(=O)O)C(C)C)C(C)C [copper-64 labelled]
tissue uptake (C57BL/6 mice, muscle; with: LPS 3 mg/kg intratracheal): 0.36 ± 0.04 %ID/g

CN1Cc2cc(Cl)ccc2-n2c(nnc2C2CCN(c3cccc([18F])n3)CC2)C1
tissue uptake (C57BL/6 mouse male, thymus; intravenous, dose not given, 5 min, with: blocking agent 10 mg/kg): 3.89 ± 1.55 %ID/g

COc1ccccc1-c1n[nH]c2nc(NC3CCN(C(=O)Cc4ccc(F)cc4F)CC3)ncc12
relative abundance (bead binding, competition bead pull-down, refers to: LINJ.33.2520; Leishmania donovani extract; 10 µM; baseline: vehicle): 0.89

O=C1NC(=O)c2c1c1cc(F)c[n+]3c1c1c2c2cc(O)ccc2[n]1[Ru-4]312([N]=C=S)[S+]3CC[S+]1CC[S+]2CC3 (stereo not drawn)
remaining activity (STK24; enzyme activity; 100 nM, human enzyme, with: 10 µM ATP; baseline: untreated): 16%

A few entries again:
CC[C@H](C)[C@H](NC(=O)CN)C(=O)N[C@@H](CCCNC(=N)N)C(=O)N[C@@H](CCCCN)C(=O)N[C@@H](Cc1c[nH]c2ccccc12)C(=O)N[C@@H](Cc1ccccc1)C(=O)N[C@@H](CCCCN)C(=O)N[C@@H](CCCCN)C(=O)N[C@@H](C)C(=O)N[C@@H](C)C(=O)N[C@@H](Cc1c[nH]cn1)C(=O)N[C@H](C(=O)NCC(=O)N[C@@H](CCCCN)C(=O)N[C@@H](CCCCN)C(=O)N[C@H](C(=O)NCC(=O)N[C@@H](CCCCN)C(=O)N[C@H](C(=O)N[C@@H](C)C(=O)N[C@@H](CC(C)C)C(=O)N[C@@H](CC(N)=O)C(=O)N[C@@H](C)C(=O)N[C@@H](Cc1ccc(O)cc1)C(=O)N[C@@H](CC(C)C)C(N)=O)C(C)C)C(C)C)C(C)C
chronic toxic concentration (zebrafish embryos 4 hpf, E3 medium; 24 h): 5 µM

CC(C)C[C@@H](NC(=O)[C@@H](CCCNC(=N)N)NC(=O)[C@@H](Cc1c[nH]cn1)NC(=O)[C@@H](Cc1c[nH]c2ccccc12)NC(=O)[C@@H](Cc1c[nH]cn1)NC(=O)[C@@H](Cc1ccccc1)NC(=O)[C@H](NC(=O)[C@@H](Cc1ccc(O)cc1)NC(=O)CNC(=O)CNC(=O)CCOCCOCCOCCNC(=O)CN1CCN(CC(=O)O)CCN(CC(=O)O)CC1)[C@H](C)O)C(=O)N[C@H](CC(N)=O)C(=O)N1CCC[C@@H]1C(=O)O [gallium-68 labelled]
tissue uptake (gamma counting; C57BL/6 mice, male, pancreas; intravenous, 1.85 MBq, 120 min): 0.48 ± 0.19 %ID/g
